Published values from different studies.
Numbered parts are unrelated; each lists some results of a single study. Several values in a cell are separate wells, animals, samples, runs or records.
Chain of UniProt P42685 (whole entry, looked up): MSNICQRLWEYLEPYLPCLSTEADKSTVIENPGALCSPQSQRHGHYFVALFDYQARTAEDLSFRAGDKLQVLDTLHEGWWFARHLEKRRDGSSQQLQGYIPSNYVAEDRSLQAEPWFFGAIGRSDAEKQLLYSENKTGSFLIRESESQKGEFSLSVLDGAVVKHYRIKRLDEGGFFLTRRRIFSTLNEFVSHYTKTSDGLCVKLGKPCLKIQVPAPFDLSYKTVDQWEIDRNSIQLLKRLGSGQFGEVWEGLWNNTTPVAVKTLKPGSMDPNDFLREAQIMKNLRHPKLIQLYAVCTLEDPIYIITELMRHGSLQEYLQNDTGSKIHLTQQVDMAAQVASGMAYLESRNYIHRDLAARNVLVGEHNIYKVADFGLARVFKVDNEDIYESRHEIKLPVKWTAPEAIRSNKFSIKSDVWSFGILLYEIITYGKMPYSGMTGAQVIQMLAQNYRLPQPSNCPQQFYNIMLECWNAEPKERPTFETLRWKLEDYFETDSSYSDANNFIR

Block 1 — method: Incucyte 3D growth; concentration: 30 µM; reading: higher = more growth; endpoint: spheroid area
Compound: CC(C)(C(=O)O)[C@H](NC(=O)Cc1cccc(I)c1)c1ccc2oc(=O)[nH]c2c1
A375; 198.52 h: 1.49e+08 a.u. and 1.48e+08 a.u. and 1.31e+08 a.u. and 1.36e+08 a.u. and 1.54e+08 a.u. and 1.58e+08 a.u.
NCI-H1437; 192 h: 3.35e+07 a.u. and 5.37e+07 a.u. and 4.59e+07 a.u. and 7.89e+07 a.u. and 7.37e+07 a.u. and 3.91e+07 a.u.
NCI-H1437; 102 h: 2.34e+07 a.u. and 3.05e+07 a.u. and 2.5e+07 a.u. and 3.3e+07 a.u. and 2.65e+07 a.u. and 2.88e+07 a.u.
A375; 252.52 h: 1.96e+08 a.u. and 1.89e+08 a.u. and 1.67e+08 a.u. and 1.65e+08 a.u. and 1.72e+08 a.u. and 1.79e+08 a.u.
MEL-JUSO; 72.52 h: 1.39e+07 a.u. and 1.46e+07 a.u. and 1.24e+07 a.u. and 1.26e+07 a.u. and 1.09e+07 a.u. and 1.4e+07 a.u.
MEL-JUSO; 18.52 h: 9.07e+06 a.u. and 1.1e+07 a.u. and 7.84e+06 a.u. and 8.9e+06 a.u. and 1.04e+07 a.u.
PC-9; 78 h: 5.83e+08 a.u. and 5.97e+08 a.u. and 5.94e+08 a.u. and 5.93e+08 a.u. and 5.71e+08 a.u.
KP-4; 180 h: 2.6e+07 a.u. and 3.67e+07 a.u. and 2.59e+07 a.u. and 1.74e+07 a.u. and 3.11e+07 a.u. and 2.64e+07 a.u.

Block 2 — species: mice bearing EL4 tumours; matrix: EL4 tumour; dose: dose not given; together with: 13C5-glutamine; endpoint: isotope enrichment
SMILES: CC(=O)N[C@@H](Cc1c[nH]c2ccccc12)C(=O)N[C@@H](CCC(=O)C=[N+]=[N-])C(=O)OC(C)C
refers to: glutamate M+5: 16% and 13.1% and 14.1% and 17% and 14.6%
refers to: malate M+4: 6.71% and 10.6% and 10.8% and 9.13% and 7.82% and 7.74%
refers to: succinate M+0: 79.5% and 84.3% and 83.2% and 85.1% and 84.5% and 79.8%
refers to: fumarate M+4: 4.01% and 2.62% and 6.48% and 0% and 2.02%

Block 3 — cell line: HaCaT; concentration: 100 µM; time: 18 h; endpoint: viability
Cn1c([N+](=O)[O-])cnc1COC(N)=O: 120%
Cc1cnc(NC(=O)C2=C(O)c3ccccc3S(=O)(=O)N2C)s1: 65.5%
CC#C[C@]1(O)CC[C@H]2[C@@H]3CCC4=CC(=O)CCC4=C3[C@@H](c3ccc(N(C)C)cc3)C[C@@]21C: 65%
COc1ccc(CN=c2[nH]c(N3CCC[C@H]3CO)ncc2C(=O)NCc2ncccn2)cc1Cl: 65.3%
COc1cc2c(N3CCN(C(=O)Nc4ccc(OC(C)C)cc4)CC3)ncnc2cc1OCCCN1CCCCC1: 28.8%
CC(C)=CCC/C(C)=C/CC/C(C)=C/CC/C(C)=C/CC1=C(C)C(=O)c2ccccc2C1=O: 68.8%
CCCCC1(COC(=O)CCC(=O)O)C(=O)N(c2ccccc2)N(c2ccccc2)C1=O: 117%
O=c1cc(-c2ccc(O)c(O)c2)oc2cc(O)cc(O)c12: 69.5%

Single results of other studies
COc1ccc2c(c[n+](C)c3c4cc5c(cc4ccc23)OCO5)c1OC
remaining activity (Tyrosine-protein kinase FRK (FRK, Homo sapiens, UniProt P42685); enzyme activity, inhibitor; 0.5 µM; baseline: control): 89.3%
